Measured values gathered from unrelated publications.
Each numbered part is a random draw from the data of one study; scales do not carry over between parts. Several values in a cell are separate wells, animals, samples, runs or records.
Sequence of UniProt Q04771 (whole entry, looked up): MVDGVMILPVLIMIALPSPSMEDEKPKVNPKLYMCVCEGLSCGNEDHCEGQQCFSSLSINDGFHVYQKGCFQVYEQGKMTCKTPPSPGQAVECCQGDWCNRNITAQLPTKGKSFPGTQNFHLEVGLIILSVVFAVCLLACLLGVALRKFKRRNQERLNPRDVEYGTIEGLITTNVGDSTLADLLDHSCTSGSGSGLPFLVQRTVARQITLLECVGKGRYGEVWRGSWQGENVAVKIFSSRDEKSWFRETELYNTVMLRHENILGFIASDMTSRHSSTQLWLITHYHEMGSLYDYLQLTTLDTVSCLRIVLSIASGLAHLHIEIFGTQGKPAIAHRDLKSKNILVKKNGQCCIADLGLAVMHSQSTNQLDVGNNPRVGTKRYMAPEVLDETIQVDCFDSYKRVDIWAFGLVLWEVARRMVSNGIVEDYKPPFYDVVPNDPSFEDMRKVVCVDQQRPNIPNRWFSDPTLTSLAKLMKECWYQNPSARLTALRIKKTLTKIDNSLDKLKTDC
Sequence of UniProt Q5VT25 (whole entry, looked up): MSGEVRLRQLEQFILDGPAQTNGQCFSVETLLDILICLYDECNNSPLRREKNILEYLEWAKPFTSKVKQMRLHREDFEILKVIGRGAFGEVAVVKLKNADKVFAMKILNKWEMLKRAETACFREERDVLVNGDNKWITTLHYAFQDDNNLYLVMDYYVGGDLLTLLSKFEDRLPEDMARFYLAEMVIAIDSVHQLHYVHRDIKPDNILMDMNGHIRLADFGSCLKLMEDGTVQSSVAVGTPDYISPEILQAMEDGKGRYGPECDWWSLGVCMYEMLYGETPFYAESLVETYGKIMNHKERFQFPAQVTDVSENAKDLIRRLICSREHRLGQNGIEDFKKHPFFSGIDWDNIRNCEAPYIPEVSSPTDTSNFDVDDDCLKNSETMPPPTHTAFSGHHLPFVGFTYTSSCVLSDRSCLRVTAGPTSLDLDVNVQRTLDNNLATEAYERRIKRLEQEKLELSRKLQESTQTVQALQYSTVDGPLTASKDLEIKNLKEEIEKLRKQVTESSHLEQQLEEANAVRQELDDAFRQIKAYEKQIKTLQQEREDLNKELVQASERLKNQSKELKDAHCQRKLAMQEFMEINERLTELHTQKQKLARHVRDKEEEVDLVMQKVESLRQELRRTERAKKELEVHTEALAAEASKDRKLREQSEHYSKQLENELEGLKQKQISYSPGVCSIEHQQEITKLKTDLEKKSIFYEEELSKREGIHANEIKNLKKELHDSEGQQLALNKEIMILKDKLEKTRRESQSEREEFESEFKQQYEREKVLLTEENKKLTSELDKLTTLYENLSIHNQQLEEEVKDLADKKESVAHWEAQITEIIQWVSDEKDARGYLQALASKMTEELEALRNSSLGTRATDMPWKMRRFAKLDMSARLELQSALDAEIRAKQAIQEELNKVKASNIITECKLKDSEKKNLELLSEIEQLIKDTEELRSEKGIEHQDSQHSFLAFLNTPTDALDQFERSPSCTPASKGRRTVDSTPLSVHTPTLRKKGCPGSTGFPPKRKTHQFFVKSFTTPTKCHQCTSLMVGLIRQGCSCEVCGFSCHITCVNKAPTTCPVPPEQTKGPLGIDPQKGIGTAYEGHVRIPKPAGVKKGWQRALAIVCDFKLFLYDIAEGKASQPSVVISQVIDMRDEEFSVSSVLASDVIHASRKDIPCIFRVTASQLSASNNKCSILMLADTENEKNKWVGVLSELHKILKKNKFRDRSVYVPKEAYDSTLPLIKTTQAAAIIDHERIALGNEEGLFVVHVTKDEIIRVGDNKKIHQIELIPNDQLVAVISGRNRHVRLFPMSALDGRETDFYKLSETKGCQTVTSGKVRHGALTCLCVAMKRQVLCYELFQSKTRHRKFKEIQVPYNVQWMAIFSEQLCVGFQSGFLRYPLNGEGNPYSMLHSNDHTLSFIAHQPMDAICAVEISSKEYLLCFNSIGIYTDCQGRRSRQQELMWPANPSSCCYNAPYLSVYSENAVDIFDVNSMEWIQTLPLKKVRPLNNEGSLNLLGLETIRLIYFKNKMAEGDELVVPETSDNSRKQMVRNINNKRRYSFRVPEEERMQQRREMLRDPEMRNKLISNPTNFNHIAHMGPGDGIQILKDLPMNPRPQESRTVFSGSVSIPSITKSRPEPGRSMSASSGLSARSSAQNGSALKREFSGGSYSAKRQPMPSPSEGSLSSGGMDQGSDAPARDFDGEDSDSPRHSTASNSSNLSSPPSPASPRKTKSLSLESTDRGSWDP
Sequence of UniProt Q13464 (whole entry, looked up): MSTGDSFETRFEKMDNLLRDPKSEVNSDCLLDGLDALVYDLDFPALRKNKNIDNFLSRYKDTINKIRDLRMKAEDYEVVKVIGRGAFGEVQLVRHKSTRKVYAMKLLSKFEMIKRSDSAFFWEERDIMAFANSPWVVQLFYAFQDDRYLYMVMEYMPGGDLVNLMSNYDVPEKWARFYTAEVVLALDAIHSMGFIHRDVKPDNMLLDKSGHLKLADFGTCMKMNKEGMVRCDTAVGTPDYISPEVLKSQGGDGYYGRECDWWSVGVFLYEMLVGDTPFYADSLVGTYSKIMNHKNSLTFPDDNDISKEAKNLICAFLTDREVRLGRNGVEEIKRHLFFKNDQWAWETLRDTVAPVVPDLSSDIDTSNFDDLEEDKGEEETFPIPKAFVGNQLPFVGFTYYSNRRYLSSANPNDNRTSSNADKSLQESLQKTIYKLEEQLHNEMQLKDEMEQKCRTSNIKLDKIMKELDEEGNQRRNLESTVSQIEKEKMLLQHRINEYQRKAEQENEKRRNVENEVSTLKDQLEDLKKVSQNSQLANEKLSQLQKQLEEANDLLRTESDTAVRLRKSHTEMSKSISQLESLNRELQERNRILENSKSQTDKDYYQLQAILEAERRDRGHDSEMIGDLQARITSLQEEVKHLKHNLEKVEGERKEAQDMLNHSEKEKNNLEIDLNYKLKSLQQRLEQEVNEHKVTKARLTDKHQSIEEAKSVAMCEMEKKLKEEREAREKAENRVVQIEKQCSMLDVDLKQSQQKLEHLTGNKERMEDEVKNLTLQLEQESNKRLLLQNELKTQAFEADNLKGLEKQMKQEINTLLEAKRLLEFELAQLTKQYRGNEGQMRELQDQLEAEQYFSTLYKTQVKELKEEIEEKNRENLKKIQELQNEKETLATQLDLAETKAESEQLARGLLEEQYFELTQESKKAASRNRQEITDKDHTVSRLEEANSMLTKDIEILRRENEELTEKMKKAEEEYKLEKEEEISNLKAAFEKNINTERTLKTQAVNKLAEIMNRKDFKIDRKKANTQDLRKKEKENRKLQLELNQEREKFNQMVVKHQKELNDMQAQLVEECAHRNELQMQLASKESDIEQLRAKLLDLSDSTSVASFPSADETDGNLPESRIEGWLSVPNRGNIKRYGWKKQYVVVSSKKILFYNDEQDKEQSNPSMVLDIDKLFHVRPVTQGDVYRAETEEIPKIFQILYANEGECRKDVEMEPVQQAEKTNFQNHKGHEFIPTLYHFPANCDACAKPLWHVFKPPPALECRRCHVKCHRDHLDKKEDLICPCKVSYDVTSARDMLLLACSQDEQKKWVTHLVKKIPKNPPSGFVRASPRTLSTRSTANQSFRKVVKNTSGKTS

Sample 1 — technique: CellTiter-Glo
SMILES: CCN1CCN(Cc2ccc(COc3c(-c4c(C)c(F)cc5[nH]ncc45)c(C4CC4)cc4c(N5C[C@@H]6C[C@H]5CN6)nc(OC5CCOCC5)nc34)cc2)C(=O)C1
A-375 (KRAS wild type); 3 µM, 6 days; baseline: DMSO — viability: 65.9% and 72.4% and 78.3% and 65.8%.
The viability was 2.39% and 2.86% and 3.16% and 1.83% and 2.26% and 2.56% and 3.14% and 3.54% (AsPC-1 (KRAS G12D); 3 µM).
The viability was 98.4% and 104% and 88.2% and 100% (AsPC-1 (KRAS G12D); 300 pM).
The viability was 13.5% and 10.9% and 11.7% and 11.1% (AsPC-1 (KRAS G12D); 1 µM).
For A-375 (KRAS wild type); 300 nM, 6 days; baseline: DMSO: viability read 95.1% and 98.4% and 106% and 108%.

Sample 2
SMILES: COc1cc(-c2nc3ccc(C(=O)NCCCN(C)C)cc3n2C2CCC2)cc(OC)c1OC
It gave 89% for remaining binding (PRKACB (Homo sapiens, UniProt P22694); binding, competition with immobilised ligand; 1 µM).
It gave 97% for remaining binding (CDKL3 (Homo sapiens, UniProt Q8IVW4); binding, competition with immobilised ligand; 1 µM).
For TRPM6 (Homo sapiens, UniProt Q9BX84); binding, competition with immobilised ligand; 1 µM: remaining binding read 100%.
ROCK1 (Homo sapiens, UniProt Q13464); binding, competition with immobilised ligand; 1 µM — remaining binding: 88%.
SRC (Homo sapiens, UniProt P12931); binding, competition with immobilised ligand; 1 µM — remaining binding: 71%.
PAK1 (Homo sapiens, UniProt Q13153); binding, competition with immobilised ligand; 1 µM — remaining binding: 95%.
It gave 98% for remaining binding (IRAK3 (Homo sapiens, UniProt Q9Y616); binding, competition with immobilised ligand; 1 µM).
It gave 78% for remaining binding (IKBKE (Homo sapiens, UniProt Q14164); binding, competition with immobilised ligand; 1 µM).
CAMK1G (Homo sapiens, UniProt Q96NX5); binding, competition with immobilised ligand; 1 µM — remaining binding: 98%.
For EPHA1 (Homo sapiens, UniProt P21709); KINOMEscan; 1000 nM: remaining binding read 78%.
The remaining binding was 96% (CDK17 (Homo sapiens, UniProt Q00537); binding, competition with immobilised ligand; 1 µM).
For NEK9 (Homo sapiens, UniProt Q8TD19); binding, competition with immobilised ligand; 1 µM: remaining binding read 48%.
The remaining binding was 62% (BRSK2 (Homo sapiens, UniProt Q8IWQ3); binding, competition with immobilised ligand; 1 µM).
It gave 100% for remaining binding (CSK (Homo sapiens, UniProt P41240); binding, competition with immobilised ligand; 1 µM).

Sample 3 — effect on: thermal unfolding; technique: differential scanning fluorimetry; tested at: 5.5 µM; direction: higher = more unfolded
Structure (SMILES): C[C@@H]1CN(c2ccc(-c3cc(C(=O)NCCOCCOCCOCCOCCNC(=O)/C=C/c4[nH]cc(C(=O)N[C@@H](CC(N)=O)c5ccc(F)c(Cl)c5)c4-c4ccc(Cl)cc4F)ccc3F)cc2NC(=O)c2c[nH]c(=O)cc2C(F)(F)F)C[C@H](C)N1C
DCAF1: DDB1- and CUL4-associated factor 1 (DCAF1, Homo sapiens, UniProt Q9Y4B6)
Sequence of UniProt Q9Y4B6 (whole entry, looked up): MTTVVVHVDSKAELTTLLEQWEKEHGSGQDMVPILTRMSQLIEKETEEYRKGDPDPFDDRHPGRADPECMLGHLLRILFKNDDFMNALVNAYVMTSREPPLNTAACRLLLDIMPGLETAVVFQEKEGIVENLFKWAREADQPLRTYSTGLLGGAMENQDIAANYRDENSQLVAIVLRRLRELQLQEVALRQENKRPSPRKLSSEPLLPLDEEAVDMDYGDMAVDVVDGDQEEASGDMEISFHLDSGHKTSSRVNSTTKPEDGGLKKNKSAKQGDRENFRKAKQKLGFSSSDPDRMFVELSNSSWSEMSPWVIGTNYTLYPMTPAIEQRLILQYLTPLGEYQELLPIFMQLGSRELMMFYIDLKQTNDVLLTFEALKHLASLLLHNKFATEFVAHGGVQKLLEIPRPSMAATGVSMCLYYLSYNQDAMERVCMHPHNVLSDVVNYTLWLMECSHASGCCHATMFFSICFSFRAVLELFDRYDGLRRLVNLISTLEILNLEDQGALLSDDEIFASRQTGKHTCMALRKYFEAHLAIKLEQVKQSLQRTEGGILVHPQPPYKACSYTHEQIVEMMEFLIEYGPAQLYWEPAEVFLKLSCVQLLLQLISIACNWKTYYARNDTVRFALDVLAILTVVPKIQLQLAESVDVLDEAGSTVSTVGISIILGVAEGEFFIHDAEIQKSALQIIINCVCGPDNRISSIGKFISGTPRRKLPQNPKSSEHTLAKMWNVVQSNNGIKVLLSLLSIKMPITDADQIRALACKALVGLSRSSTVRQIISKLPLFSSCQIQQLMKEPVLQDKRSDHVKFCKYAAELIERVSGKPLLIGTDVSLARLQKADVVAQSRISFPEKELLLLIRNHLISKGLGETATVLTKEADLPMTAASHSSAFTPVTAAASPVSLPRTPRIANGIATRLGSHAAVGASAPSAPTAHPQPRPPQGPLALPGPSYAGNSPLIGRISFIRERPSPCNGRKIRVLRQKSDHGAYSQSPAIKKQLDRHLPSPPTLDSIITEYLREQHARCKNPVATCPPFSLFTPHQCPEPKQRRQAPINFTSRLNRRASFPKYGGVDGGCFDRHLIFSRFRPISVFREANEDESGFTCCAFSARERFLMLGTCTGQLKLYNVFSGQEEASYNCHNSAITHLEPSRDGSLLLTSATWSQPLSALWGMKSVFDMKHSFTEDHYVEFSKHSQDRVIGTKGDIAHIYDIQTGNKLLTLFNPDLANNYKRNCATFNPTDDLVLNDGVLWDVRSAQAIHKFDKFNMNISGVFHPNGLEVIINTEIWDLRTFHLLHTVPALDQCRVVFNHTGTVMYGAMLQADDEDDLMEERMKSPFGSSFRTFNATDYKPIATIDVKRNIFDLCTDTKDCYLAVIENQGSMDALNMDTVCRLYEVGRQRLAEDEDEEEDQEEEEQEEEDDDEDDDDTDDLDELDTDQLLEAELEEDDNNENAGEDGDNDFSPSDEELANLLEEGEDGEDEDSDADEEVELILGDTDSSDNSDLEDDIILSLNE
For WDR5 (Homo sapiens, UniProt P61964); 26.6 °C: “SYPRO Orange fluorescence” read 13000 a.u.
It gave 12200 a.u. for “SYPRO Orange fluorescence” (DCAF1; 42 °C).
For DCAF1; 48.6 °C: “SYPRO Orange fluorescence” read 14600 a.u.
DCAF1; 59.81 °C — “SYPRO Orange fluorescence”: 39800 a.u.
For DCAF1; 52.61 °C: “SYPRO Orange fluorescence” read 17500 a.u.
It gave 9000 a.u. for “SYPRO Orange fluorescence” (DCAF1; 25.4 °C).
It gave 50000 a.u. for “SYPRO Orange fluorescence” (DCAF1; 75.01 °C).
For DCAF1; 85.61 °C: “SYPRO Orange fluorescence” read 39500 a.u.
DCAF1; 91.01 °C — “SYPRO Orange fluorescence”: 34000 a.u.
For DCAF1; 63.81 °C: “SYPRO Orange fluorescence” read 56300 a.u.
DCAF1; 47.2 °C — “SYPRO Orange fluorescence”: 14000 a.u.

Sample 4 — tested at: 1 µM
SMILES: CCC1(c2cccc(-c3cn(C)nc3C)c2)C2=C(Nc3n[nH]cc31)C(F)C(C)(C)CC2=O (single isomer, unassigned)
For ERN1 (Homo sapiens, UniProt O75460); binding, competition with immobilised ligand: remaining binding read 81%.
The remaining binding was 100% (Tyrosine-protein kinase JAK3, JH1 (JAK3, Homo sapiens, UniProt P52333); binding, competition with immobilised ligand).
The remaining binding was 100% (STK26 (Homo sapiens, UniProt Q9P289); kinase binding, KINOMEscan; baseline: DMSO control).
It gave 100% for remaining binding (WNK2 (Homo sapiens, UniProt Q9Y3S1); binding, competition with immobilised ligand).
For PIK3CA (Homo sapiens, UniProt P42336, I800L); kinase binding, KINOMEscan; baseline: DMSO control: remaining binding read 58%.
It gave 98% for remaining binding (ACVR1 (Homo sapiens, UniProt Q04771); kinase binding, KINOMEscan; baseline: DMSO control).
It gave 100% for remaining binding (CSNK1D (Homo sapiens, UniProt P48730); binding, competition with immobilised ligand).
It gave 99% for remaining binding (MAPK13 (Homo sapiens, UniProt O15264); binding, competition with immobilised ligand).
For STK38L (Homo sapiens, UniProt Q9Y2H1); binding, competition with immobilised ligand: remaining binding read 98%.
It gave 100% for remaining binding (STK32A (Homo sapiens, UniProt Q8WU08); binding, competition with immobilised ligand).
It gave 98% for remaining binding (NUAK1 (Homo sapiens, UniProt O60285); binding, competition with immobilised ligand).
The remaining binding was 100% (Ribosomal protein S6 kinase alpha-5, N-terminal kinase domain (RPS6KA5, Homo sapiens, UniProt O75582); binding, competition with immobilised ligand).
It gave 100% for remaining binding (MERTK (Homo sapiens, UniProt Q12866); kinase binding, KINOMEscan; baseline: DMSO control).
It gave 100% for remaining binding (NEK10 (Homo sapiens, UniProt Q6ZWH5); kinase binding, KINOMEscan; baseline: DMSO control).
CDK16 (Homo sapiens, UniProt Q00536); binding, competition with immobilised ligand — remaining binding: 100%.
CDC42BPA (Homo sapiens, UniProt Q5VT25); binding, competition with immobilised ligand — remaining binding: 100%.
For LRRK2 (Homo sapiens, UniProt Q5S007); binding, competition with immobilised ligand: remaining binding read 83%.

A few entries again (sample 2):
It gave 97% for remaining binding (CDKL3 (Homo sapiens, UniProt Q8IVW4); binding, competition with immobilised ligand; 1 µM).
For TRPM6 (Homo sapiens, UniProt Q9BX84); binding, competition with immobilised ligand; 1 µM: remaining binding read 100%.
ROCK1 (Homo sapiens, UniProt Q13464); binding, competition with immobilised ligand; 1 µM — remaining binding: 88%.
SRC (Homo sapiens, UniProt P12931); binding, competition with immobilised ligand; 1 µM — remaining binding: 71%.
PAK1 (Homo sapiens, UniProt Q13153); binding, competition with immobilised ligand; 1 µM — remaining binding: 95%.
It gave 98% for remaining binding (IRAK3 (Homo sapiens, UniProt Q9Y616); binding, competition with immobilised ligand; 1 µM).
It gave 78% for remaining binding (IKBKE (Homo sapiens, UniProt Q14164); binding, competition with immobilised ligand; 1 µM).
